Measured values from different studies.
Numbered parts are unrelated; each lists some results of a single study. Changes are numbered by the printed parent chain.

Set 1 — method: RNA Bind-n-Seq; molecule type: RNA; matrix: in vitro; tested at: 365 nM; baseline: no-protein control; reading: higher = stronger binding; measurement: RBNS enrichment (R)
Target: RNA binding protein fox-1 homolog 2, RRM domain, GST-SBP tag (RBFOX2, Homo sapiens, UniProt O43251-10, residues 100-194)
Setting: natural RNA segment, single round, ends assumed
All sequences stand within: GGGAGUUCUACAGUCCGACGAUC … UGGAAUUCUCGGGUGCCAA
Residues (chain): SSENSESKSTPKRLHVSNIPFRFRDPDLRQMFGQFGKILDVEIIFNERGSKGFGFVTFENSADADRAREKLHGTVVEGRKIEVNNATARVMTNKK
UACAGACUGUCCCCAACUUAACAGUGGUUCAACUUAAACCAUGUUUCAACUUUACAAUUGGUCUGUUGGGGUAUUAAAUGAAUUUGUGACUUAGGAUAUUUUCAUUUAUG: 0.327
UUUAGUUUUUUCAUUUUGUUCUACUUUAUUAAAAAGGUUGGGUGUUCUAGUUCUUGGUUUCUCAUAGAUUUUUAAACUAUCUAAUUAGAGAACACUUUUGAUCCAUCACA: 0.521
CUGUGAUUAGGUACAAGCUUACCUUUUAGGGUAGAAAAAGAAAGAUCAUUUGAAAAAUGUAUCUAAAAUAAUCCAGAGAACAUAAUGUUUGUCUUGGUCUGAUAAUGAUA: 0.342
CGGAUCCAGACACCUGACCUAGAAUGCCUGCCCGCUAUCCCUGUGGCAGGAAAUAUCCCCUCAUGUCCCAGGGAAUUGCAGAUGGGUCUUCUAUACCCUUCUACCUGCCC: 0.318
UUUGGGGGCUCAGCCCUGCCCGGUUAAGUUGACAUAUCAAGUUAACCCACUGAAGGGCUUCAGGUUUCAUUUUUUAAUCUUCUCAAAAACCAGAAAAAAAAAAUCAGAAA: 0.401
AACCUAUCCUCCUCACCAGAAGAGCCUGUGUUUUUCUGCUGAACACCCACUGUUCCUGAGGACUCCUGCUGGGAAGUCCCAAGGGAUAGUUCUAGCCCUUCUGCCUGUGU: 0.38
CAUUUCUCUUUCGUCUCAACAGUAGACAACUAGGAUGUGGAUCUCAUAUUUAUAAGUAUGCAUUUUAUUUAAGAGGAAGUAUAGGCUUGACUCUGGUUCACAAUUUCGUA: 1.62
CAUGGUGGUGGAUAUUUGGGUCUGUGAAAUCUGAAAAAAACAAAGGUCUAUUCGGAUUGCAUAGGGGUAUAUUAAUAUAUUUUAAACUCACCUAGAUUACACUCAAUUGA: 0.488

Set 2 — target: CEP164, C-terminal peptide (human); method: DHFR complementation, deep sequencing; matrix: yeast; baseline: wild type; reading: higher = weaker binding; measurement: binding free energy change
Setting: single substitutions, model-inferred values
Parent: PDZK1, PDZ domain 2 (human); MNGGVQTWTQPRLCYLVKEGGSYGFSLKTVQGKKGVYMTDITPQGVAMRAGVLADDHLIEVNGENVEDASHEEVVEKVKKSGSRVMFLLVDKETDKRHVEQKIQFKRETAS; partner HNRVKVYRF
F25A: 1.6 kcal/mol
G21S: -0.012 kcal/mol
V52C: 0.0941 kcal/mol
F25G: 1.77 kcal/mol
Y23Q: 1.3 kcal/mol
G3K: -0.159 kcal/mol
P43S: 0.272 kcal/mol
A110E: -0.0527 kcal/mol
G4M: 0.0482 kcal/mol

Set 3 — method: DHFR PCA, deep sequencing; matrix: yeast; added: (+)-ABA 710 µM; baseline: wild-type fitted maximum; reading: higher = stronger binding; measurement: relative binding score
Target: ABI1, truncated, D143A, DHFR fusion (Arabidopsis thaliana)
Setting: methotrexate growth selection, single substitutions
Parent: PYL1, truncated, DHFR fusion (Arabidopsis thaliana); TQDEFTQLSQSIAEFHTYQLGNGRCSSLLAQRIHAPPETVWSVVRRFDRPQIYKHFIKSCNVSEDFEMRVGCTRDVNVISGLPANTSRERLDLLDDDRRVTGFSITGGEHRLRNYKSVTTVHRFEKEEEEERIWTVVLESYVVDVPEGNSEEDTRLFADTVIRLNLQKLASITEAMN
I172R: 83.8%
A13C: 101%
T73M: 101%
P37M: 90.8%
T120N: 36%
D95S: 95.4%
L164M: 101%
G23Q: 96.7%
E67H: 101%
N149A: 88.2%
F5Q: 106%
G81H: 65.8%
H122I: 59.7%
R111N: 93.7%
N77H: 104%
T86M: 98.2%
A84W: 57.2%

Set 4 — target: CCND3, cyclin fold, Cln2 fusion (human); method: yeast growth competition, sequencing; matrix: yeast; setting: weak parent motif; baseline: not given; reading: higher = stronger binding; measurement: normalised enrichment score
Parent: PKN2 docking peptide (human); VSAVRKLDFSDTM
VHAVRKLDFSDTM [S2H]: 0.416
VSAVRKLDFSMTM [D11M]: 0.335
VSAVRKYDFSDTM [L7Y]: 0.0386
VSAVRKLDFSDEM [T12E]: 1.51
VSAVRKLDQSDTM [F9Q]: -0.161
VSAVRKLLFSDTM [D8L]: -0.152
VSAVRKLDFSATM [D11A]: 0.751
VSAVRKLDFSITM [D11I]: 0.729
VSAVRKLDFMDTM [S10M]: 0.405
VSAVRKVDFSDTM [L7V]: 0.0533
VSAVRKLSFSDTM [D8S]: 0.461
VSAVRKLDFSDFM [T12F]: 0.971
VLAVRKLDFSDTM [S2L]: 0.38
VSAVRKGDFSDTM [L7G]: 0.141
VSAVRKLDFCDTM [S10C]: 0.948
VSFVRKLDFSDTM [A3F]: -0.219
VSAVRKLDFEDTM [S10E]: 1.16
VSAVRKLDESDTM [F9E]: 0.174
VSMVRKLDFSDTM [A3M]: 0.0684

Set 5 — method: protein-binding microarray; molecule type: double-stranded DNA, one strand shown; matrix: in vitro; tested at: 940 nM top; setting: 60-bp whole probe; added: salmon DNA 0.4 mg/ml; baseline: random background probes; reading: higher = stronger binding; measurement: fitted relative affinity; all sequences stand within: GCCTAGCAC … GTCTTGATTCGCTTGACGCTGCTG
Target: Interferon regulatory factor 5, full length, phosphomimetic (IRF5, Homo sapiens, UniProt Q13568-2, residues 1-514, S451D/S453D/S456D/S462D)
TGTGTTGCAGAAACGCCATGGTGCTAG: -0.308 z-score
GACGGACTGGGTCACGGGACGTGCTAG: -0.785 z-score
GGGGCTTGGGAGAGGCATCCGTGCTAG: -0.108 z-score
GACGGTATCGGTCTCGGGGCGTGCTAG: 8.35 z-score
TCACTTCACCTCTCTGTCACTGTGCTA: 1.38 z-score
GACGGGCTCCTTCTCCTGACGTGCTAG: -0.123 z-score
TTAGATATGGGGTTTCGATTAGTGCTA: 5.36 z-score
TCATCTCTCTGTGACACACTGTGCTAG: 1.24 z-score
TCACCCCTCCCCCTCAGACTGTGCTAG: 0.354 z-score
TTAGGTCTTGGTATCGGTTAGTGCTAG: 6.06 z-score
TCAGGTATCGGGTATCGGTTAGTGCTA: 6.8 z-score
TTAGGTCTCGGTATCGGTCAGTGCTAG: 6.81 z-score
TTAGATTTCGGGACTGGATCAGTGCTA: 0.64 z-score
TTAGATTTCAGACAGGATTAGTGCTAG: -0.217 z-score
TTAGGTCTCCTTTTCCTTTGGTGCTAG: 0.708 z-score
TCACTTATCCTTCCCCTACTGTGCTAG: 1.45 z-score
TTAGATATCGGGTTTCGATTTGTGCTA: 4.95 z-score
ATAGGACTGCTTTTCCTTTAGTGCTAG: -0.0614 z-score
ACCATTCTCGGGACTCACCTGGTGCTA: 2.61 z-score

Other studies, line by line
PhoQ, residues 284 288 289 292 302 303 TVTVVA
fold induction (PhoP, residues 12 14 15 18 19 NYFTV (Escherichia coli, UniProt P23836); Sort-seq, measured: YFP reporter; E. coli; PhoQ-PhoP variant library, added: 10 µM Mg2+; baseline: high Mg2+ state, higher = stronger signaling): 9.43

Excerpt of the above (set 5):
TTAGGTCTTGGTATCGGTTAGTGCTAG: 6.06 z-score
TCACCCCTCCCCCTCAGACTGTGCTAG: 0.354 z-score
ATAGGACTGCTTTTCCTTTAGTGCTAG: -0.0614 z-score
TTAGATATGGGGTTTCGATTAGTGCTA: 5.36 z-score
GACGGACTGGGTCACGGGACGTGCTAG: -0.785 z-score
TCATCTCTCTGTGACACACTGTGCTAG: 1.24 z-score
TTAGGTCTCGGTATCGGTCAGTGCTAG: 6.81 z-score
